Experimental data gathered from unrelated publications.
Each line is one published result; not all experiments were run side by side.
Concentration: 1 µM
UniProt P51956, sequence (whole entry, looked up): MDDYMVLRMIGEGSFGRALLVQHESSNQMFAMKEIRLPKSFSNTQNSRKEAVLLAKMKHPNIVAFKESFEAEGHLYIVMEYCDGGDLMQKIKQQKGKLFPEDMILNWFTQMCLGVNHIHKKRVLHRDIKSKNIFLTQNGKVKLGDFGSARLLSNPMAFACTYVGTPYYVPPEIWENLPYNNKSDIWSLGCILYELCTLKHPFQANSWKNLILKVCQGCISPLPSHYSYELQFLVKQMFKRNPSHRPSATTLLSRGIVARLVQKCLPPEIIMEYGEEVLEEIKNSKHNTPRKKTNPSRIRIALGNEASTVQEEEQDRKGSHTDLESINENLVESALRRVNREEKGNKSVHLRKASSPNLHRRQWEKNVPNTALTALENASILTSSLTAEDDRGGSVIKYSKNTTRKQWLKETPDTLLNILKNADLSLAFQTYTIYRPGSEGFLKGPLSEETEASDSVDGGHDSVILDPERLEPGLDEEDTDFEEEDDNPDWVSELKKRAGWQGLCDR
UniProt P45984, sequence (whole entry, looked up): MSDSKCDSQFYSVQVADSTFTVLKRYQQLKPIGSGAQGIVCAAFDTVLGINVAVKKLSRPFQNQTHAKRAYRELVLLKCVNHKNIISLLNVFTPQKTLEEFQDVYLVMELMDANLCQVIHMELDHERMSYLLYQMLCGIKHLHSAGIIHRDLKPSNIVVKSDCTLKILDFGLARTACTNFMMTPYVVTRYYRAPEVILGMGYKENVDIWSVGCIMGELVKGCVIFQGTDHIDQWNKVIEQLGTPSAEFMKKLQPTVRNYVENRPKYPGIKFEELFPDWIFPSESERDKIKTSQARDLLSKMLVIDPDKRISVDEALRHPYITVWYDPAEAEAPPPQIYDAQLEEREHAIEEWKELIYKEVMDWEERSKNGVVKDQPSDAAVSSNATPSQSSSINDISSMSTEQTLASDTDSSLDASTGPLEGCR
UniProt Q06187, sequence (whole entry, looked up): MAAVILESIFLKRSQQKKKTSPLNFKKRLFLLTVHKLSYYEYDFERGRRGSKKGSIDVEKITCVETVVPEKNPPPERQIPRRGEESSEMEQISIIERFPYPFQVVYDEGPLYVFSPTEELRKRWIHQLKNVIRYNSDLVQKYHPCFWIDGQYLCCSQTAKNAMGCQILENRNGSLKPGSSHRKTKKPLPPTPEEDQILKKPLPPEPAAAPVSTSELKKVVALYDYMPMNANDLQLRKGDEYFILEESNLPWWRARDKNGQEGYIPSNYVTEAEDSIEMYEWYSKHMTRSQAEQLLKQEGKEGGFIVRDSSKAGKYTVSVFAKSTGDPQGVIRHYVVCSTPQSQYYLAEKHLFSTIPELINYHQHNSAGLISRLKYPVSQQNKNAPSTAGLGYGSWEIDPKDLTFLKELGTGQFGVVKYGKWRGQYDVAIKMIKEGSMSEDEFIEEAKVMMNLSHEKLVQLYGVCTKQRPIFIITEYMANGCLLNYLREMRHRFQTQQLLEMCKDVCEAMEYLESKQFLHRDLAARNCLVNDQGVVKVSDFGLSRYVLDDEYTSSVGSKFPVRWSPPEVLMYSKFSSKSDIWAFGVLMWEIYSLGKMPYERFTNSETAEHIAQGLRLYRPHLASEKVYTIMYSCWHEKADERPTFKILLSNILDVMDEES

Structure (SMILES) | target | test | measurement | value
C=CC(=O)N1CCC(COCC(=O)N2CCN(c3nc(-c4cnc(N)nc4C(F)F)nc(N4CCOC[C@@H]4C)n3)CC2)CC1 | Serine/threonine-protein kinase Nek3 (NEK3, Homo sapiens, UniProt P51956) | binding, competition with immobilised ligand | remaining binding | 96%
Cc1cc([C@@H](C)Nc2ccccc2C(=O)O)c2nc(N3CCC(F)(F)CC3)c(C#N)c(=O)n2c1 | Mitogen-activated protein kinase 9 (MAPK9, Homo sapiens, UniProt P45984) | binding, competition with immobilised ligand | remaining binding | 96%
CNc1ncc2c(/C=C/C(=O)N3CCC(OC)CC3)nn(Cc3cccc(C(F)(F)F)c3)c2n1 | Tyrosine-protein kinase BTK (BTK, Homo sapiens, UniProt Q06187) | enzyme activity, inhibitor, radiometric | remaining activity | 76%
COc1cc(-c2cncc3c2CN(C)Cc2cc(N4CCNCC4)ccc2-3)cc(OC)c1OC | cAMP-dependent protein kinase catalytic subunit alpha (PRKACA, Homo sapiens, UniProt P17612) | enzyme activity, inhibitor | remaining activity | 102%

A few entries again:
Structure (SMILES) | target | test | measurement | value
CNc1ncc2c(/C=C/C(=O)N3CCC(OC)CC3)nn(Cc3cccc(C(F)(F)F)c3)c2n1 | Tyrosine-protein kinase BTK (BTK, Homo sapiens, UniProt Q06187) | enzyme activity, inhibitor, radiometric | remaining activity | 76%
